{"data": "Measured values of several laboratories", "note": "Every numbered part comes from another study and shows a few of its results, in no order. Substitutions count along the parent as printed."}
{"data": "Study 1", "target": "ABI1, truncated, D143A, DHFR fusion (Arabidopsis thaliana)", "technique": "DHFR PCA, deep sequencing", "matrix": "yeast", "notes": "methotrexate growth selection, single substitutions", "together with": "(+)-ABA 710 µM", "baseline": "wild-type fitted maximum", "direction": "higher = stronger binding", "starting sequence": "PYL1, truncated, DHFR fusion (Arabidopsis thaliana); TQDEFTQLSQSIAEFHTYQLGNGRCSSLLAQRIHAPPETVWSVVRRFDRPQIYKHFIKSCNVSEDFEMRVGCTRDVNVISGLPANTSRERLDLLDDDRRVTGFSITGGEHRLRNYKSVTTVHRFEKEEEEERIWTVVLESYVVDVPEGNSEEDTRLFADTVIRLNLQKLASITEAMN; partner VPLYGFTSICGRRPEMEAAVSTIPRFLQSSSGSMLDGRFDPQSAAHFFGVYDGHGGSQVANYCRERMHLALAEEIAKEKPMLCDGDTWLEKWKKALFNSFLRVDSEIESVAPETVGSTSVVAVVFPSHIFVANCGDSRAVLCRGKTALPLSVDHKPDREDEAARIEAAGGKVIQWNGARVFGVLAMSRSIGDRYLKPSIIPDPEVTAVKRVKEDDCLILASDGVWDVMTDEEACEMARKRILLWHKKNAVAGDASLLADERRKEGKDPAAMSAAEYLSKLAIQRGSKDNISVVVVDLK"}
{"Substitution": "I162A", "relative binding score": "59.3%"}
{"Substitution": "G148W", "relative binding score": "75.9%"}
{"Substitution": "R123N", "relative binding score": "105%"}
{"Substitution": "D153N", "relative binding score": "72.8%"}
{"Substitution": "K54Y", "relative binding score": "-3.43%"}
{"Substitution": "G81Q", "relative binding score": "49.5%"}
{"Substitution": "H16P", "relative binding score": "25.7%"}
{"Substitution": "D48I", "relative binding score": "33.1%"}
{"Substitution": "D96R", "relative binding score": "40%"}
{"Substitution": "T154H", "relative binding score": "-29%"}
{"Substitution": "L20R", "relative binding score": "103%"}
{"Substitution": "D65S", "relative binding score": "97.3%"}
{"Substitution": "L166Y", "relative binding score": "20%"}
{"Substitution": "G108K", "relative binding score": "46.2%"}
{"Substitution": "L8S", "relative binding score": "81.7%"}
{"Substitution": "T101M", "relative binding score": "113%"}
{"Substitution": "L28T", "relative binding score": "91.3%"}
{"Substitution": "G102L", "relative binding score": "0.418%"}
{"data": "Study 2", "target": "Ras GTPase-activating protein-binding protein 1, C-terminal RGG region (G3BP1, Homo sapiens, UniProt Q13283)", "technique": "RNA Bind-n-Seq", "molecule type": "RNA", "matrix": "in vitro", "concentration": "1 µM", "notes": "whole 134-nt RNA, ends assumed", "together with": "150 mM KCl", "baseline": "input library", "direction": "higher = stronger binding", "constant ends, left off below": "GGGAGUUCUACAGUCCGACGAUC … UGGAAUUCUCGGGUGUCAAGG", "UniProt Q13283, sequence (whole entry, looked up)": "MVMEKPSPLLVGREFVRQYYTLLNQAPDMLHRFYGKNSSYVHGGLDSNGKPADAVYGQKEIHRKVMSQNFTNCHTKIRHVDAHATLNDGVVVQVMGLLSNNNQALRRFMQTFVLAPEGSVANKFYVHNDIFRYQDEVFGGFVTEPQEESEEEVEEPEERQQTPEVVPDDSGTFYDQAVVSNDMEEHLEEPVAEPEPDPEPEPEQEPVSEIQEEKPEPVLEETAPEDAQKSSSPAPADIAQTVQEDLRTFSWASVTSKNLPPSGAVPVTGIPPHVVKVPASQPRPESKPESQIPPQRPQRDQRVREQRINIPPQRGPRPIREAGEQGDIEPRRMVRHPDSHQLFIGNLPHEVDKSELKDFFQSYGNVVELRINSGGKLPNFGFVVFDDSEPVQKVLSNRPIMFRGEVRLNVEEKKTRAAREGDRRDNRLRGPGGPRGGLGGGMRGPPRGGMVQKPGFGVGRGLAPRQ"}
{"Oligonucleotide": "UAACUUUAGAGGAGGAUCUGAUGGAUAUGGCAGUGGACGUGGAUUUGGGGAUGGCUAUAAUGGGUAUUGAGGAGGACCUGGAGGUGGCAA", "log2 enrichment": -0.896}
{"Oligonucleotide": "CAAGUCCUGUGCUACACAUCGUAUGUACCGAAUCGGGAAAGGAAAGGGAAAGGGGAAAGUAUUAUGUUACGCCGUUCGGAUCUGCACUUC", "log2 enrichment": -0.829}
{"Oligonucleotide": "AAGUCCUGUGCUACACAUCGUAUGUACCGAAUCGGGUUUGGGUGGGUUUUUUUGGGAAAGUAUUAUGUUACGCCGUUCGGAUCUGCACUU", "log2 enrichment": 1.11}
{"Oligonucleotide": "GCAGGAAGUAAAAACAAAAAAAAAUGCUUCGGAUAGUGGCAGGGGUGGGGGUUGCUAAGGAAAGGGUGGGAUGGGAGUGGGUAAAGAGUU", "log2 enrichment": 1.91}
{"Oligonucleotide": "UAACUUUAGAGGAGGAUCUGAUGGAUAUGGCAGUGGACGUGGAUUUGGGGAUGGCUAUAGUGGGUAUGGAGGAGGACCUGGAGGUGGCAA", "log2 enrichment": -1.24}
{"Oligonucleotide": "GUCCUGUGCUACACAUCGUAUGUACCGAAUCGGGGAAAAAGGAAAAAGGGAAAAAGGGAAAGUAUUAUGUUACGCCGUUCGGAUCUGCAC", "log2 enrichment": -1.43}
{"Oligonucleotide": "GCAGGAAGUAAAAACAAAUGGAAAUGCAAAGGAUAGUGGCAGGGGUGGGGGUUGCUAAGGAAAGGGUGGGAUGGGAGUGGGUAAAGAGUU", "log2 enrichment": 1.61}
{"Oligonucleotide": "UCAAGUCCUGUGCUACACAUCGUAUGUACCGAAUCGGUUUUUGGAAAGGAAAGGAAAGUAUUAUGUUACGCCGUUCGGAUCUGCACUUCC", "log2 enrichment": -1.35}
{"Oligonucleotide": "AAGUCCUGUGCUACACAUCGUAUGUACCGAAUCGGAAAGGAAAAAAAGGAAAAAGGAAAGUAUUAUGUUACGCCGUUCGGAUCUGCACUU", "log2 enrichment": -2.05}
{"Oligonucleotide": "CAAGUCCUGUGCUACACAUCGUAUGUACCGAAUCGGGGAAGGGGAAGGGAAGGGGAAAGUAUUAUGUUACGCCGUUCGGAUCUGCACUUC", "log2 enrichment": 2.79}
{"Oligonucleotide": "CACAGACAACACGCACCUACACAGACACAGAGGGAAGGGGUUGGGAUGGGGACAGGGUGCACAGCAGGGCGGGGUAGGACCCCAGCCCCU", "log2 enrichment": -0.156}
{"Oligonucleotide": "CACAGACAACACGCACCCACACAGACACAGAGGGAAGGGGUUGGGAUGGGGACAGGGUGCGCAGCAGGGCGGGGUAGGACCCCAGCCCCU", "log2 enrichment": -0.486}
{"Oligonucleotide": "UACCAAUUGGCCUUUAUUGACUGUAUCCAAAGGAUUUUUUGAAGGCACCAUUGCCAGCAAAGGUAAGUACCUAUUUCUCCCAUAGCACUU", "log2 enrichment": -1.37}
{"Oligonucleotide": "UAACUUUAGAGGAGGAUCUGAUGGAUAUGGCAGUGGACGGGGAUUUGGGGAUGGCUAUAAUGGGUAUGGAGGAGGACCUGGAGGUGGCAA", "log2 enrichment": -0.69}
{"data": "Study 3", "target": "UBE2E3 UBC core domain (UniProt Q969T4)", "technique": "yeast two-hybrid", "matrix": "yeast", "notes": "mostly zero background", "baseline": "not given", "direction": "higher = stronger interaction", "B1": "MYCBP2 RING domain (UniProt O75592); chain TSLKQDADDMCMICFTEALSAAPAIQLDCSHIFHLQCCRRVLENRWLGPRITFGFISCPICKNKINHIVLKD", "B2": "TRIM26 RING domain (UniProt Q12899); chain PLRSLEEEVTCSICLDYLRDPVTIDCGHVFCRSCTTDVRPISGSRPVCPLCKKPFKKENIRP", "B3": "MEX3B RING domain (UniProt Q6ZN04); chain SGLRRKGSRDCSVCFESEVIAALVPCGHNLFCMECANRICEKSEPECPVCHTAVTQAIRIF", "B4": "RNF122 RING domain (UniProt Q9H9V4); chain AKKLQLYGQTCAVCLEDFKGKDELGVLPCQHAFHRKCLVKWLEVRCVCPMCNKPIASPSEAT", "B5": "TRIM60 RING domain (UniProt Q495X7); chain ALVNLQEESSCPICLEYLKDPVTINCGHNFCRSCLSVSWKDLDDTFPCPVCRFCFPYKSFRR", "B6": "RNF2 RING domain (UniProt Q99496); chain SPRSLHSELMCPICLDMLKNTMTTKECLHRFCADCIITALRSGNKECPTCRKKLVSKRSLR", "B7": "TRIM31 RING domain (UniProt Q9BZY9); chain FVNKLQEEVICPICLDILQKPVTIDCGHNFCLKCITQIGETSCGFFKCPLCKTSVRKNAIRF", "B8": "RNF152 RING domain (UniProt Q8N8N0); chain ETLSQDSLLECQICFNYYSPRRRPKLLDCKHTCCSVCLQQMRTSQKDVRCPWCRGVTKLPPGFS", "UniProt Q969T4, sequence (whole entry, looked up)": "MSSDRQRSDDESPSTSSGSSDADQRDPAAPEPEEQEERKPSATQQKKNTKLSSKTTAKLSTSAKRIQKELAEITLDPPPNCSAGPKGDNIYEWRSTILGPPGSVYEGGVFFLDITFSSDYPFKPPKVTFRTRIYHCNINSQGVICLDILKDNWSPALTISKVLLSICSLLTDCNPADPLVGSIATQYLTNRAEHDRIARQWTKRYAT"}
{"Molecule": "B1 (MYCBP2 RING domain)", "lacZ reporter activity": 0}
{"Molecule": "B2 (TRIM26 RING domain)", "lacZ reporter activity": 0}
{"Molecule": "B3 (MEX3B RING domain)", "lacZ reporter activity": 0}
{"Molecule": "FVKTVEDKYKCEKCHLVLCSPKQTECGHRFCESCMAALLSSSSPKCTACQESIVKDKVF (TRAF3 RING domain (UniProt Q13114))", "lacZ reporter activity": 0}
{"Molecule": "B4 (RNF122 RING domain)", "lacZ reporter activity": 0}
{"Molecule": "RYRQMEERITCPICIDSHIRLVFQCGHGACAPCGSALSACPICRQPIRDRIQIF (MIB2 RING domain (UniProt Q96AX9))", "lacZ reporter activity": 0}
{"Molecule": "B5 (TRIM60 RING domain)", "lacZ reporter activity": 0}
{"Molecule": "YCEMGSTFQLCKICAENDKDVKIEPCGHLMCTSCLTAWQESDGQGCPFCRCEIKGTEPII (CBLB RING domain (UniProt Q13191))", "lacZ reporter activity": 0}
{"Molecule": "AEADPLGRFTCPVCLEVYEKPVQVPCGHVFCSACLQECLKPKKPVCGVCRSALAPGVRAV (RNF114 RING domain (UniProt Q9Y508))", "lacZ reporter activity": 0}
{"Molecule": "LGTKLEAKYLCSACRNVLRRPFQAQCGHRYCSFCLASILSSGPQNCAACVHEGIYEEGIS (TRAF2 RING domain (UniProt Q12933))", "lacZ reporter activity": 0}
{"Molecule": "B6 (RNF2 RING domain)", "lacZ reporter activity": 0}
{"Molecule": "B7 (TRIM31 RING domain)", "lacZ reporter activity": 0}
{"Molecule": "LDAASGHPLVCPLCHGQYERPCLLDCFHDFCTGCLRGRATDGRLSCPLCQHQTLVKGPSG (Rnf207 RING domain (UniProt Q3V3A7))", "lacZ reporter activity": 0}
{"Molecule": "MNDVLENELQCIICSEYFIEAVTLNCAHSFCSYCINEWMKRKIECPICRKDIKSKTYSL (RNF8 RING domain (UniProt O76064))", "lacZ reporter activity": 0}
{"Molecule": "B8 (RNF152 RING domain)", "lacZ reporter activity": 0}
{"Molecule": "KPDKMEETLTCIICQDLLHDCVSLQPCMHTFCAACYSGWMERSSLCPTCRCPVERICKNH (CHFR RING domain (UniProt Q96EP1))", "lacZ reporter activity": 0}
{"data": "Study 4", "target": "CCNA2, cyclin fold, Cln2 fusion (human)", "technique": "yeast growth competition, sequencing", "matrix": "yeast", "notes": "strong parent motif", "baseline": "not given", "direction": "higher = stronger binding", "starting sequence": "RBL1 docking peptide (human); GSAKRRLFGEDPP"}
{"Substitution": "S2R", "normalised enrichment score": 6.41}
{"Substitution": "L7Y", "normalised enrichment score": 0.221}
{"Substitution": "A3V", "normalised enrichment score": 6.42}
{"Substitution": "G1W", "normalised enrichment score": 5.96}
{"Substitution": "G1I", "normalised enrichment score": 6.74}
{"Substitution": "R5H", "normalised enrichment score": 0.395}
{"Substitution": "L7A", "normalised enrichment score": 0.107}
{"Substitution": "K4I", "normalised enrichment score": 2.6}
{"Substitution": "G1V", "normalised enrichment score": 6.94}
{"Substitution": "R5N", "normalised enrichment score": 0.677}
{"Substitution": "P13D", "normalised enrichment score": 6.12}
{"Substitution": "D11S", "normalised enrichment score": 5.42}
{"Substitution": "S2G", "normalised enrichment score": 6.26}
{"Substitution": "S2C", "normalised enrichment score": 6.33}
{"Substitution": "A3Y", "normalised enrichment score": 4}
{"Substitution": "R6L", "normalised enrichment score": 2.24}
{"Substitution": "R6A", "normalised enrichment score": 3.74}
{"Substitution": "P13T", "normalised enrichment score": 5.5}
{"Substitution": "P12L", "normalised enrichment score": 5.4}
{"Substitution": "P13Y", "normalised enrichment score": 5.1}
{"Substitution": "D11G", "normalised enrichment score": 5.87}
{"Substitution": "R6K", "normalised enrichment score": 5.5}
{"Substitution": "E10D", "normalised enrichment score": 5.96}
{"Substitution": "R5K", "normalised enrichment score": 5}
{"Substitution": "L7P", "normalised enrichment score": 1.15}
{"note": "Excerpt of the above (study 2):"}
{"Oligonucleotide": "CAAGUCCUGUGCUACACAUCGUAUGUACCGAAUCGGGGAAGGGGAAGGGAAGGGGAAAGUAUUAUGUUACGCCGUUCGGAUCUGCACUUC", "log2 enrichment": 2.79}
{"Oligonucleotide": "AAGUCCUGUGCUACACAUCGUAUGUACCGAAUCGGAAAGGAAAAAAAGGAAAAAGGAAAGUAUUAUGUUACGCCGUUCGGAUCUGCACUU", "log2 enrichment": -2.05}
{"Oligonucleotide": "CACAGACAACACGCACCUACACAGACACAGAGGGAAGGGGUUGGGAUGGGGACAGGGUGCACAGCAGGGCGGGGUAGGACCCCAGCCCCU", "log2 enrichment": -0.156}
{"Oligonucleotide": "UACCAAUUGGCCUUUAUUGACUGUAUCCAAAGGAUUUUUUGAAGGCACCAUUGCCAGCAAAGGUAAGUACCUAUUUCUCCCAUAGCACUU", "log2 enrichment": -1.37}
{"Oligonucleotide": "CACAGACAACACGCACCCACACAGACACAGAGGGAAGGGGUUGGGAUGGGGACAGGGUGCGCAGCAGGGCGGGGUAGGACCCCAGCCCCU", "log2 enrichment": -0.486}
